Measurements from different studies.
Each numbered part is a random draw from the data of one study; scales do not carry over between parts. Changes are numbered by the printed parent chain.

Study 1
Target: Interferon regulatory factor 7, full length, phosphomimetic (IRF7, Homo sapiens, UniProt Q92985, residues 1-503, S101K/S471D/S472D/S475D/S476D/S477D/S483D/S484D/S487D)
Method: protein-binding microarray
Molecule type: double-stranded DNA, one strand shown
Matrix: in vitro
Concentration: 250 nM
Notes: 60-bp whole probe
Added: salmon DNA 0.4 mg/ml
Relative to: random background probes
Direction: higher = stronger binding
Quantity: log fluorescence
All sequences stand within: GCCTAGCAC … GTCTTGATTCGCTTGACGCTGCTG
Construct (chain): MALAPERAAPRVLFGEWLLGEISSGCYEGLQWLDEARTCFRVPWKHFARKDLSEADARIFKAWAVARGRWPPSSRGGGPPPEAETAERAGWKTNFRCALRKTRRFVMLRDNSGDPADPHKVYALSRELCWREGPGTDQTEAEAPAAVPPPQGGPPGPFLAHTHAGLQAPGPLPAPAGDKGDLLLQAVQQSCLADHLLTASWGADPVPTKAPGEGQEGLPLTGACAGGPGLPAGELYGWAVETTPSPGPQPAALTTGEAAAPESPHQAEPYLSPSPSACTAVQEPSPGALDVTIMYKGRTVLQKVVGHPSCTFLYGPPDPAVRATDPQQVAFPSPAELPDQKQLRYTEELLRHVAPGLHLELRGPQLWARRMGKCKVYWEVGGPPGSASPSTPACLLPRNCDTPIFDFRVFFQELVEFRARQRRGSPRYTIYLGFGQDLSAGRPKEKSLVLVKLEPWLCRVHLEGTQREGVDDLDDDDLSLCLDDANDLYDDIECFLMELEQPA
GACGATTTCGGGACTGTAGACGTGCTA: 0.0694 z-score
TTAGGTATCAGACTGGATTAGTGCTAG: -0.156 z-score
TTAGAACTAGGGTATCGATTAGTGCTA: 0.0443 z-score
GAGACTTTGCTCTGTGCATAGGTGCTA: -0.387 z-score
GACCGTTTCGGGTTTCGGGACGTGCTA: 7.23 z-score
TTAGATATCGGGTTTCGCTTAGTGCTA: 4.54 z-score
TTAGAACTGAGGTTTCGATTAGTGCTA: 7.57 z-score
TTAGGGTTCCTTCTCCTTTAGTGCTAG: -0.0445 z-score
CTTTCTATCTCTGTTTTTGCGTGCTAG: 2.17 z-score
GACGGTTCCGGTTTCGGCACGTGCTAG: 6.23 z-score
TTAGGACTGGACTTTCGGTTTGTGCTA: 3.21 z-score
GACGGTATCGGTCTCGGTACGTGCTAG: 0.913 z-score
GACGGACTGGGGTGTCGGGACGTGCTA: -0.735 z-score
GACGGTATCCTTTTCCTGAAGTGCTAG: 0.986 z-score
TTAGTACTGGGGTTTCGGTTAGTGCTA: 5.46 z-score
TTAGAACTGCTTTTCCTTTAGTGCTAG: 0.711 z-score
TTAGAATTCGGGTATCGATTAGTGCTA: 0.738 z-score
TTAGGACTGCTTTTGCTTTAGTGCTAG: 0.595 z-score
GGCGGACTGGACACTGGGGACGTGCTA: -1.09 z-score
TTATGACTGGACTTTCGGTTAGTGCTA: 0.617 z-score
GACGATATCGACTTTCGGGACGTGCTA: 0.245 z-score
TTAGGTTTCCTTATGCTTTAGTGCTAG: 2.11 z-score
TTAGGTTTCGGGTTCGGTTAGTGCTAG: 11.2 z-score
GACGATTTCAGTATCGACACGTGCTAG: 0.316 z-score
GACGGTCTCGGACTGGGGTCGTGCTAG: 0.227 z-score

Study 2
Target: Histone acetyltransferase KAT6A, winged helix 1, GST fusion (KAT6A, Homo sapiens, UniProt Q92794, residues 1-85)
Method: protein binding microarray
Molecule type: double-stranded DNA, one strand shown
Matrix: in vitro
Concentration: not given
Notes: 8-mer, flanks averaged, mean of 2 arrays, mostly near background
Relative to: not given
Direction: higher = stronger binding
Quantity: E-score
Target sequence (chain): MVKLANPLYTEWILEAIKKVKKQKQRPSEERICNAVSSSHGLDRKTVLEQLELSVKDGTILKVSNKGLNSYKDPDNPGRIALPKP
ATGGCGTG: -0.04
ACCTAGCA: -0.189
AGTTACCG: 0.153
CTCGTATC: -0.169
ACCGTGTG: 0.161
ACTTCTTA: -0.168
AGCTTTAA: -0.104
CCGCGCAG: 0.391
CGCTACGC: 0.404
ATAGCTGA: -0.102
CCGACAGA: 0.146
CAATAGGA: -0.12
AGAATATA: -0.0921
CCCATCCC: -0.0127
GGACATAA: -0.0174
AAAATCGG: 0.0845
AACAATAA: -0.0809
GATGCTGA: -0.15
GCGGTAAC: 0.366
GAAGTCAC: -0.0584
ATCTCGTG: -0.216
AGACCAAA: -0.119
AAGTAGCC: -0.0104
ACCGTGGA: 0.247
CATCGGGA: 0.0905

Study 3
Target: CCND1, cyclin fold, Cln2 fusion (human)
Method: yeast growth competition, sequencing
Matrix: yeast
Notes: strong parent motif
Relative to: not given
Direction: higher = stronger binding
Quantity: normalised enrichment score
Starting sequence: CDC42EP1 docking peptide (human); SLVVGKLSFDSSP; partner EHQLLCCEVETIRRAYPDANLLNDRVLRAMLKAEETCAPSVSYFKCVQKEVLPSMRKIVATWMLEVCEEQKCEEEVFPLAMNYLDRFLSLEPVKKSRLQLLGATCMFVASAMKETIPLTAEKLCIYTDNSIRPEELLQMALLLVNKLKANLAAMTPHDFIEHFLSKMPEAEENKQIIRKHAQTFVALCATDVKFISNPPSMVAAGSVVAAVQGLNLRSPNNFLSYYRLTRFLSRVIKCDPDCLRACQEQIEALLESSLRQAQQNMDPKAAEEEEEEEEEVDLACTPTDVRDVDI
S11A: 0.871
K6A: 0.728
V4A: 0.747
D10A: 0.588
L7A: 0.391
P13A: 0.267

Study 4
Target: RNA binding protein fox-1 homolog 2, RRM domain, GST-SBP tag (RBFOX2, Homo sapiens, UniProt O43251-10, residues 100-194)
Method: RNA Bind-n-Seq
Molecule type: RNA
Matrix: in vitro
Concentration: 365 nM
Notes: natural RNA segment, single round, ends assumed
Relative to: no-protein control
Direction: higher = stronger binding
Quantity: RBNS enrichment (R)
All sequences stand within: GGGAGUUCUACAGUCCGACGAUC … UGGAAUUCUCGGGUGCCAA
Residues (chain): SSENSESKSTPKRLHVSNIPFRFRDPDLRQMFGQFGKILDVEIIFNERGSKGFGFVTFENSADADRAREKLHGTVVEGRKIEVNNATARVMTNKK
UACCUCUCCAGCCUCAGCUCUCAGUUGCAGCCCUGCUGCUGCCUGCCUGGACUUGGCCCCUGCCACCUCCUGCCUCAGGUGUCCGCUAUCCACCAAAAGGGCUCCCUGAG: 0.305
UAAAUCCAAUGAGUACUACCCCACCCAUCUUGAUGAAUAUCAAUAUCUUCAGGACUGCAAUCAUUCUGCCUAUAGGUCAGAACUGAGCUAGGAUGGAAUCUUGAAACAUA: 0.339
AACCUGUCUUGUUUCAGGAGCCACCAUGUUUUUUUUUCAGUGUUAACAACAAUCAUGAUAAUUAAAUUAAAACACUAGUUUGUUCACUUGUAGGACUGCAGUUCUGAAUU: 0.433
UAAUUAAUUGAAUAUAAUAGGAUACCUAGCAAAUGUUUUCACAAAAGUGAAUCUUUGUGAUUUUCAUUCUAGAAAACAAUGUUUUAAAUCACCCAAAUUUAAUCACAUGU: 0.41
UAACCAUGGGAUUCAGAAGAGCACUAACCAGUGCAGCAUAGAAAUAGGAAUAGCGUAGGAAUAGAAAUUUGCCCAAGACUUUGAUAGUCAUCUGGUUUCAGUUCAGCAAG: 0.566
UGCAAUCAAACCUAAGCUGUUGCCACAAACCACUAAUGAAACUCAGUGUUUGAGCCAAAUCUCCGCAAUUGAGAGCAGUGCAAGUGCUGAGAGGAUGUAGACUGGGCUGG: 0.33
GCUGGGGGCUUUCGGGGGCAGUUGCCCACCUCCUCAGGGCAGCUCUUUCUGGCCUUUUGGGGGGCAGUGUCUGUGCCAUGCCUAAUAGAUAUGACCAGACGCAUCCUAAG: 0.355
CAAGCAGGGCUAAGGCACCUUGAACUAGCCAGAUGCAAACAUAGAUUCACUGUGCUUUCCUUUCAAAUCCAGUUCUUCCACAGCAACUAGCCCAUAGUCAGUCUGUGUUC: 0.373
CACAUUUACAUUUCUAAGUAGUUGUAUAGUAGAAGCAGGAAGCUCUUAUUGCUUAUUUGGUCGUAAUGAAAAUAAUUUGUAAAAUGUCCUUUAAAAGUUUAAUGAUACUU: 1.01
AAUAAUAGACUGUUUCAUUGAAAGAAUGAAAAGAGGCCAGGUGAAGUAGUAAUUUAUAAAUUUAGUAUUUGCAGUGGUUCACGCCUGUAAUCCCACCACUUUGGGAGGCC: 0.429
CCAUUGGCAGGGGCCCAAGAAGUUCAGUGACCAACUGGUCCUUCCACACCACACCAGCUGGUGCUGCCCAUGUCUGUCGAAUCAUAACGGAAAAUUCCCCAGAUCACGUU: 0.483
UGCGAAAGAUGGCUACCUGGGGGGCUGCGGGGCUUGGGGGAGUUUACAAUCCCAUCCUAUGGCCUGCAGCCAGGCUGACAGCCUCUCCCCGAACCAUGCAUCCAAGUGCA: 0.269

Study 5
Target: RING finger protein unkempt homolog, zinc fingers 1-6, GST-SBP tag (UNK, Homo sapiens, UniProt Q9C0B0, residues 30-357)
Chain of UniProt Q9C0B0 (30-357, looked up): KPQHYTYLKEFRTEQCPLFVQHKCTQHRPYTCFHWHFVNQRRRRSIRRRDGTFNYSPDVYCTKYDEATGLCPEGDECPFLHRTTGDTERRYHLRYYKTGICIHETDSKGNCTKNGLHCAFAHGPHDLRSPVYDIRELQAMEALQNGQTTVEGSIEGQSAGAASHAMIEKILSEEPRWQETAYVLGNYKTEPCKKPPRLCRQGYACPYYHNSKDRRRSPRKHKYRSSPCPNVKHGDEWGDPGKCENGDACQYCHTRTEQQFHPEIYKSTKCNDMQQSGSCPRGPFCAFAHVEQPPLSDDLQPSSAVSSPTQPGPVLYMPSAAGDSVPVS
Method: RNA Bind-n-Seq
Molecule type: RNA
Matrix: in vitro
Concentration: not given
Notes: RNA with constant flanks, ends assumed
Relative to: input RNA pool
Direction: higher = stronger binding
Quantity: bound/input enrichment
All sequences stand within: GGGAGUUCUACAGUCCGACGAUC … CAACAGAGGAUUGAGCAUCA
UAGAGCUAGAUUCAAUCAGGUGUCUGAAAUGUGAGUUAAACAUUACUUUAUCCUUUGGUGCCGUUCUUAUUAUUUUCCAUUUAUUGUGCCUCUGGCAGCAGUGUUCCCUUUGAAAGGCCC: 1.69 ratio
UAAGAAGAAAAACAAGUUAUAGCACUUUCAAUUUUUUUUUUUUUUUUAAAAAAAGGUUUACCGCUUUUUCUUUUCCCAUGUCACAAUGUCCACUUCCUAAGAAGGGUUUAAAAUACUAUG: 0.679 ratio
GCACCCAGGUCCUAUAGGAUAGCACCUAGGCCAUACAGGUUAGCACCUAGACCCUUGAUGUCCGCAUCUAGACGUUCUAUGAUGAUGUCCUAUGCUGCAGAACGUUCCAUGAUGUCAUCU: 0.184 ratio
CUGGCAUCAGUGAAGAUUUCCAAGGUGAAAUAUGUUAUCUGGUCGGCAGACAUGUCUCAUGCCGCGUUACUGGCCAAGCAUGCCAUUGUGAUCUGUAACCGCAAGCUGGAUGCUCUGUGU: 0.104 ratio
CCCGUGUCGAGAGUUUAUUCUAGGGACAGGAAUCAAAAAUGCGGUGCGUCUUUCUACGUGAACCGGAUUUUGUGGCUGGCCAGAUACACUGCAUCAUCUUUUUCAUCAUUUUUAGUUCAA: 1.95 ratio

Study 6
Target: Sal-like protein 4, full length isoform B (SALL4, Homo sapiens, UniProt Q9UJQ4-2, residues 1-616)
Method: universal PBM
Molecule type: double-stranded DNA, one strand shown
Matrix: in vitro
Concentration: not given
Notes: 8-mer, flanks averaged, mean of replicates
Direction: higher = stronger binding
Quantity: E-score
Residues (chain): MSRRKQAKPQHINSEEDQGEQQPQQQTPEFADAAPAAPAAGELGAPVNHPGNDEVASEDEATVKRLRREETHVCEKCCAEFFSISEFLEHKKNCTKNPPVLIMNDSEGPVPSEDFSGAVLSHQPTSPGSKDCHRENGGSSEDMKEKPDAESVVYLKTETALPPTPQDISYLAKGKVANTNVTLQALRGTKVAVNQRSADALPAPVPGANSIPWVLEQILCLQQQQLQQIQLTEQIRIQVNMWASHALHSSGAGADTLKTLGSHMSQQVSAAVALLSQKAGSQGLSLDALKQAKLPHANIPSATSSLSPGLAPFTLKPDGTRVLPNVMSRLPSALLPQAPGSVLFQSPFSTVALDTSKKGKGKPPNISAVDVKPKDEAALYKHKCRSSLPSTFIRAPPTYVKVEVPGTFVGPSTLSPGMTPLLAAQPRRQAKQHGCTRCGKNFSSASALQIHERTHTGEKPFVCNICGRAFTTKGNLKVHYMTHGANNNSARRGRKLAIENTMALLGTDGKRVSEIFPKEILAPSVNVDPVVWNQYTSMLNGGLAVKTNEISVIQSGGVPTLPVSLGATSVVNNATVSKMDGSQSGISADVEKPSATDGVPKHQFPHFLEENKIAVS
ACTCGGCG: -0.292
CAGTCTGA: -0.128
CACTTAGA: 0.0808
CGGGAGTA: -0.0508
CTAACAGA: -0.00546
CGTTGTTC: -0.0228
AGCAATTG: 0.108
CTTCATCA: 0.122
GAACTTGA: 0.0478
ATACGCCA: 0.0872
ACACCAAA: 0.22
TCCCTACA: 0.158

A few entries again (study 3):
S11A: 0.871
K6A: 0.728
V4A: 0.747
D10A: 0.588
L7A: 0.391
P13A: 0.267
